Published values from different studies.
Each line is one published result; not all experiments were run side by side.
Target: Serine/threonine-protein kinase NLK (NLK, Homo sapiens, UniProt Q9UBE8)

Cc1ccc(-c2c(/C=C(\C#N)C(=O)NC(C)C)n(CCCO)c3ncnc(N)c23)cc1 — remaining binding (cell-free assay, competition with immobilised ligand; 1 µM): 72%
CS(=O)(=O)Nc1cccc(-c2csc3cnc(Nc4ccc(N5CCN(CCCCCOc6cccc7c6C(=O)N(C6CCC(=O)NC6=O)C7=O)CC5)cc4)nc23)c1 (centres unmarked) — inhibition (probe labelling, inhibitor, KiNativ chemoproteomics; MOLT-4; 1 µM): 3.62%
CCN1CCN(Cc2ccc(NC(=O)c3ccc(C)c(NC(=O)c4cncc(-c5cccs5)c4)c3)cc2C(F)(F)F)CC1 — remaining binding (binding, competition with immobilised ligand; 1 µM): 20%
NC(=O)C[C@H]1CCc2sc3ncnc(O[C@H]4CC[C@H](N5CCOCC5)CC4)c3c21 — inhibition (enzyme activity, inhibitor; 10 µM): -2%
COc1cc(Nc2nc(C)cc(-c3cnn4nc(OC)ccc34)n2)cc(C(F)(F)F)c1 — remaining activity (inhibitor; 1 µM; relative to: control): 100%
C=CC(=O)N1CCc2ccc(-n3c(=O)ccc4cnc5ccc(-c6cnn(C)c6)cc5c43)cc21 — remaining binding (KINOMEscan; 1 µM; relative to: DMSO control): 100%
C=CC(=O)N1Cc2nc(-c3cc(-c4cc(Cl)cnc4Cl)c(F)cc3F)n(-c3ccncn3)c2C1 — inhibition (cell-free assay; 1 µM): 0.5%
COc1ccc(NC(=O)Nc2ccc3c(c2)C(=O)N(C(C)CO)CC(C)C(CN(C)Cc2ccc4c(c2)OCO4)O3)cc1 (centres unmarked) — remaining activity (kinase activity, KinaseProfiler; 0.03 µM, species human; relative to: control): 106%
CCN1CCN(Cc2ccc(C(=O)Nc3ccc(C)c(NCc4cnc5[nH]ccc5c4OC)c3)cc2C(F)(F)F)CC1 — remaining binding (binding, competition with immobilised ligand; 1 µM): 28%
CC(C)=CC1OC(C)(C)C2C=C3C(=O)C(Cl)=CC(O)C3C3C(O)C4OC4C(=O)C132 (centres unmarked) — remaining binding (cell-free assay, competition with immobilised ligand; 10 µM): 92%
CCn1cc(C(=O)O)c(=O)c2c(N)c(F)c(NC3CCCCC3)cc21 — inhibition (kinase activity; 0.1 µM, together with: ATP at Km): 5.7%
CNC1C[S+]2CC[S+]3CC[S+](C1)[Ru-4]321([N]=C=S)[n]2c3ccc(OC)cc3c3c4c(c5cc(F)c[n+]1c5c32)C(=O)NC4=O (centres unmarked) — remaining binding (KinomeScan; 0.1 µM; relative to: untreated): 82%
C=CC(=O)Nc1cc(-c2nn(C3CCN(CCNC(=O)[C@H](C)CCC45CC6CC(CC(C6)C4)C5)CC3)c3ncnc(N)c23)ccc1Oc1ccccc1 — inhibition (inhibitor, KiNativ profiling; biochemical; 2 µM): 22.7%
Nc1ncc2c(n1)-c1c([nH]c3ccc(C4=CCOCC4)cc13)CCC2 — remaining binding (binding, competition with immobilised ligand; 1 µM): 100%

Some of these lines once more:
Cc1ccc(-c2c(/C=C(\C#N)C(=O)NC(C)C)n(CCCO)c3ncnc(N)c23)cc1 — remaining binding (cell-free assay, competition with immobilised ligand; 1 µM): 72%
